Assay results from different studies.
A part holds a random share of what one study measured.

Study 1
Target: RNA binding protein fox-1 homolog 2, RRM domain, GST-SBP tag (RBFOX2, Homo sapiens, UniProt O43251-10, residues 100-194)
Technique: RNA Bind-n-Seq
Form: RNA
Medium: in vitro
Concentration: 365 nM
Notes: natural RNA segment, single round, ends assumed
Baseline: no-protein control
Reading: higher = stronger binding
Measurement: RBNS enrichment (R)
Shared flanks, not repeated: GGGAGUUCUACAGUCCGACGAUC … UGGAAUUCUCGGGUGCCAA
Construct (chain): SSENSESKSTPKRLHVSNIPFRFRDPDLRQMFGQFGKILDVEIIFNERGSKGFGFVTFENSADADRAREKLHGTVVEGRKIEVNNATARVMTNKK
Strand = AUUUUAUUAUUUUUUUCUUACAGAAAUAUUUUUAAAAAUUAAAGAAAAUCUCAAGUGAAAAAGAAUUAACCUGUUAAAUCAGAAUGGUUCUCUUUGACCCGUUCUGGUCU; result = 0.576
Strand = AUUUAGUGAAAUGCUGUUGCCCCAAAGUGAUGGUUGUGGGAUUUCUUACCGGUCAUAGGCCCCGGUGAGGAGCAGGGAAGCGCCAUUGUGAAAGAUUAAAGAAAGCACUU; result = 0.649
Strand = UGCCAUGGCCCCGAACCUGCAAUUCCAUCCUAGCGCAGAAGCAUGUGCCUGCCACCUGCUGCCCCUGCAGAGUCAUGUGUGUUUGUGGUGGGCAUUUUAAAUAAUUAUUU; result = 5.87
Strand = GUUCUUAUCAGGGUGUGUCCACACUCUGCUCACAGGUGGAUCCACGGCUUUCCAGUGCGGAGAGUCGAGAUGCUCCCUGCAGCCCAGGCCCCGGGCACCUCCUGCAACCA; result = 0.205
Strand = GUCAAAAGCCCAGAAAGGCAAAAACCCAGCUUUCUUGUUUGGAGAGACAUGGGGCAUGUGUCUGCCAAUAGCCAGUUGUUCUCAGUGUGCACUAUGUAGGUCCCCAUCCA; result = 1.04
Strand = CAGAAGGCCAGAGCUGGGACAAGCCUUGACCCGUUCUGCAGCCCUUAGAGCCUUCACACGUGAGCACUAGGCCAUCUUAGCAGAACCCCCAUCUGGCAGCACAUGCCAAG; result = 7.12
Strand = UUUACGUGGUAACUAGUCUUAUAACAUGUAUGUAUCUUUUUUUUGUUGUUCAUCUAAAGCUUUUUAAUCCAAAUAAAUACAGAGUUUGCAAAGUGAUUUGGAUUAACCAG; result = 2.14
Strand = ACAAGGAGAACGCAGGUUGAUGCAAGAGGUGGAAAUGUUCUCCCAUAUCAAGAUGCGACCCAAGGGGCUAAGUGGGAACAGUGGUUAUGUGGACUCGUAAGAUUCACAGA; result = 1.68
Strand = UACGCUGCUGUCACUUUCUGUCCAGGAGCUGGCACCCCAGGUGUUCUGAGACCUUGAGGGACCCAGACCUUUGGGUCCAAGAGUUUCCCAAACAGCCACGCCUCUCAGGA; result = 0.304
Strand = CACAGGUAAGAGAAGCUGCCAGUGACGUUCUGUGGGGCCUGGCUUUGGGCAGCUGCUCAUCAUUGAGGAAGUGGCAGGACUUGGAGGAAGUUAUGUGUGAAUGUUGUCAA; result = 5.86
Strand = GGGUCCAUAGGGAGGGACCUCAUGGGGCUGUCACAUCCUAGCAACCUUCUUAGCCUCCUUCCUUCCUUCCACACGGCCCAGAGGCCAGCUCGGCCCCACCCAGAGGGCCU; result = 1.77
Strand = UGAAAAUCUUUUUUAAGGGAGAAAAAUCUCAACCAAAGUUAUGCUCAUCCAGACAAGCUGACCUUUGAGUUAAUUUCAGCACAACUCAUUCUUCAGUGCCUCAUGACUGA; result = 0.478

Study 2
Target: Interferon regulatory factor 5, full length, phosphomimetic (IRF5, Homo sapiens, UniProt Q13568-2, residues 1-514, S451D/S453D/S456D/S462D)
Technique: protein-binding microarray
Form: double-stranded DNA, one strand shown
Medium: in vitro
Concentration: 940 nM top
Notes: 60-bp whole probe
Added: salmon DNA 0.4 mg/ml
Baseline: random background probes
Reading: higher = stronger binding
Measurement: fitted relative affinity
Shared flanks, not repeated: GCCTAGCAC … GTCTTGATTCGCTTGACGCTGCTG
Strand = TTAGGTATTGGTATCGGTTAGTGCTAG; result = 7.49 z-score
Strand = TCAAGAATCCCCTTCTAACTGTGCTAG; result = 0.372 z-score
Strand = TGGGACCAGCACAGACAGTCGTGCTAG; result = -1.09 z-score
Strand = GGTCAGTCAGGTCACTTCTGGTGCTAG; result = -0.274 z-score
Strand = TTAGGTATCCTTCTCGTTTAGTGCTAG; result = 0.899 z-score
Strand = TCAGTTCTAAATATCTTACTGTGCTAG; result = 0.559 z-score
Strand = GGGGGAAATGGGAAACCCGGGGTGCTA; result = 1.07 z-score
Strand = TTACGTTTCCTTTTCCTTTAGTGCTAG; result = 2.59 z-score
Strand = CTAATATTCTGCTTTGCAATGTGCTAG; result = 0.152 z-score
Strand = TTACGTTTCCTTTCCCTTTAGTGCTAG; result = 2.64 z-score
Strand = TTAGGTTCCCGTTTCGGTTAGTGCTAG; result = 3.86 z-score
Strand = GACCGTTCCCTTTTCCTGACGTGCTAG; result = 1.18 z-score
Strand = TTAGGACGGCTTATCCTTTAGTGCTAG; result = -0.602 z-score
Strand = TTATGACTGCTTATCCTTTAGTGCTAG; result = 0.137 z-score
Strand = TTCGATTCCAGTTTCGATTAGTGCTAG; result = 9.14 z-score
Strand = TCAGTCATCGATTTCTTACTGTGCTAG; result = 0.173 z-score
Strand = TATCTTATCCTATCAGTTTAGTGCTAG; result = 0.195 z-score
Strand = GCCGATCTCAGACTGGAGACGTGCTAG; result = -0.503 z-score
Strand = TTAGGTCTCGTTATCCTTTAGTGCTAG; result = 2.35 z-score
Strand = TTAGATTTTAGTTCCGATTAGTGCTAG; result = 1.91 z-score
Strand = GATGGTTTCCTTTCCCTGACGTGCTAG; result = 2.57 z-score
Strand = TTAGGACTGGGGACTGGGATAGTGCTA; result = -0.385 z-score
Strand = CACGGTATCCTTCTCCTGACGTGCTAG; result = 0.167 z-score
Strand = TTAGGTTCCGGTTTGGGTTAGTGCTAG; result = 3.95 z-score
Strand = TATTTTTTCTGAACCATTTTGTGCTAG; result = 0.824 z-score

Study 3
Target: RING finger protein unkempt homolog, zinc fingers 1-6, GST-SBP tag (UNK, Homo sapiens, UniProt Q9C0B0, residues 30-357)
Technique: RNA Bind-n-Seq
Form: RNA
Medium: in vitro
Concentration: not given
Notes: RNA with constant flanks, ends assumed
Baseline: input RNA pool
Reading: higher = stronger binding
Measurement: bound/input enrichment
Shared flanks, not repeated: GGGAGUUCUACAGUCCGACGAUC … CAACAGAGGAUUGAGCAUCA
Construct (chain): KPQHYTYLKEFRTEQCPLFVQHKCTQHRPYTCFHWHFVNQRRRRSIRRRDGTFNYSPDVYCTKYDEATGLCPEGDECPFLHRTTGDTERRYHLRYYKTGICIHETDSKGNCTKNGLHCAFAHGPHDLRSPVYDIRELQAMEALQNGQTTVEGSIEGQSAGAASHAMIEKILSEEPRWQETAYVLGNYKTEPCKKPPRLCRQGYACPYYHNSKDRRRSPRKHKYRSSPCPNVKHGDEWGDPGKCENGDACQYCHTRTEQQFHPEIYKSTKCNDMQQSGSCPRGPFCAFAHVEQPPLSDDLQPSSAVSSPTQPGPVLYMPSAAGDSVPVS
Strand = ACUUUUCCAGUAUUUUAGUGGACCCUGAAAUGUGUGUGAUGUGACAUUUGUCAUUUUCAUCCGCAAAAAAAGUUGUAUGAUCUGUGCCUUUUUUAUAUCUUGGCAGGUAGGAAUAUUAUA; result = 0.322 ratio
Strand = CGGCGCUACACUAGAGCAGAGUACGAGUCUGAGGCGGAGGGAGUAAUGGCAGGACAAGCGUUCCGAAAGUUUCUUCCACUCUUUGACCGAGUAUUGGUUGAAAGGAGUGCUGCUGAAACU; result = 0.167 ratio
Strand = CUUUUUGAAUCUUUCAAGAGUUUUGAAGGUCUCUUUUAUUUUCUGGGAUCCAUUGUUAACUUCCGCCAGGACCCAGAUGUGCACUUUAAAUAUAUUCAGGCAGCUUGCAAGACUGGGCAA; result = 0.48 ratio
Strand = CAUAUCAGUGACGUGGUGCUGGACAAGGCCAAUAAAACACCACUGCGGCCACUGGAUCCCACCCGACUACAAGGCAUAAAUUGUGGCCCAGACUUCACUCCAUCCUUUGCCAACCUUGGC; result = 0.0469 ratio
Strand = UCUGUUAAUCUCAAAGUGUGGCCAACUCCCAUUUACUUAGAGGCUGAUUAUCUAGUUUUGCCGUUCCUCAGGCCUCUAAUUUAUUUUUUGCUUUCUGCUUUAUUGAUCUUUUGCAUGUCC; result = 2.1 ratio
Strand = AAGAUCUUUAAUGUUGCCAUUCCCCGAUUCCAUAUGGCAUGUCCAACAUUCAGGGUGUCUACCGCCCGAUUGGAAAUGGGUCCUGAUGAAUAUGAAGAGAUGGAAGAAGAGGAGGAGGAG; result = 0.186 ratio
Strand = GAUGGCAAUGGCCAGGAGGCCUAUGCCUCGAGCUGCAACAGCGGCACCUCUUACAAUUCCAUCCGCUCUGUUGUAUCCCGGUGAGGGCAGCCUCUGGCUUGGGCAGGGUCUGUUUGGACU; result = 0.0789 ratio
Strand = UACAGGGGUGCAUACCAUCUUGCAGUGGCUUGGCUGACAUUGCCUCUUUGUCCUGGCCUCCCGUUUUCUUUUGAUAUUUCAUAGCUCUCCUUAGUUUACUCUGCCUGGAUAGAAAGUUGA; result = 0.563 ratio
Strand = CUAAGUUCUUAACACAUAGUUUUGGACCUCAAAAUAACAUUUUAGAGUUAUUCUAGGCUCAACCGUUUUUGCUUUAGAUAAUUAUUACAUUUUCCUAAAUUUGUAAUUGCUUUAUUCUGU; result = 4.29 ratio
Strand = GCAGAUGAAGUAGAGUUUACUGUGGUUCCUGAUAUGCUCUCUGCUCAAAGAAAUCAUGCUAUCCGGAUUAAAAAACUUCCCAAGGGCACGGUUUCAUUUCAUUCCCAUUCAGAUCACCGU; result = 0.231 ratio
Strand = CUGUUCUCCUAUGGUUGAUAAAGCUUUAAAUACUAUUUAAAGUGGUUCUGGUCUGUACUUACCCGCACUUCCCUGAACAGUCUCAAAAUAGCCUAAACAUAAGAAAACAAUCCUGCAAAG; result = 0.523 ratio

Study 4
Target: Prothrombin, mature alpha-thrombin (F2, Homo sapiens, UniProt P00734)
Technique: aptamer microarray, sandwich
Form: DNA with 2'F-ANA
Medium: in vitro
Concentration: 200 nM
Notes: whole 15-mer aptamer, many near background
Added: Cy3 exosite-II aptamer, 400 nM
Reading: higher = stronger binding
Measurement: mean fluorescence intensity
Strand: GGTTGGTGTGGTTGG
Modification = 2'F-ANA at 1 2 13; result = 138 a.u.
Modification = 2'F-ANA at 1 2 5 6 7 9 11 13 15; result = 47.7 a.u.
Modification = 2'F-ANA at 1 2 3 4 5 6 12 13 14; result = 77.3 a.u.
Modification = 2'F-ANA at 2 6 7 10 11 12 14; result = 81.4 a.u.
Modification = 2'F-ANA at 3 5 6 7 12 13 14; result = 54.3 a.u.
Modification = 2'F-ANA at 3 6 7 8 9 10 13 14; result = 395 a.u.
Modification = 2'F-ANA at 1 3 8 10 12 15; result = 116 a.u.
Modification = 2'F-ANA at 3 4 5 9; result = 104 a.u.
Modification = 2'F-ANA at 2 3 4 5 11 12 15; result = 153 a.u.
Modification = 2'F-ANA at 1 4 6 10 11 12; result = 92.9 a.u.
Modification = 2'F-ANA at 4 5 7 8 9 10 11 13 15; result = 46.6 a.u.
Modification = 2'F-ANA at 2 3 4 5 8 10 11 12 15; result = 57.8 a.u.
Modification = 2'F-ANA at 1 4 6 7 9 11 13 14 15; result = 72.3 a.u.
Modification = 2'F-ANA at 1 3 5 7 8 9 14 15; result = 50.1 a.u.
Modification = 2'F-ANA at 3 4 5 6 7 8 9 13 14 15; result = 52.9 a.u.
Modification = 2'F-ANA at 4 5 7 8 9 11 12 14 15; result = 48.1 a.u.
Modification = 2'F-ANA at 1 2 5 8 9 14 15; result = 46.4 a.u.
Modification = 2'F-ANA at 9 10 11 14 15; result = 95.6 a.u.
Modification = 2'F-ANA at 1 2 6 7 8 10 11 12 13; result = 60.3 a.u.
Modification = 2'F-ANA at 2 4 5 6 8 11 13; result = 125 a.u.
Modification = 2'F-ANA at 2 4 5 6 7 8 9 11 12; result = 131 a.u.
Modification = 2'F-ANA at 2 3 7 8 9 11 15; result = 827 a.u.
Modification = 2'F-ANA at 3 4 5 6 11 12 14 15; result = 57.6 a.u.
Modification = 2'F-ANA at 1 2 3 5 7 8 11 12 13 14; result = 47 a.u.
Modification = 2'F-ANA at 1 5 8 10 11 13 14 15; result = 53 a.u.

For quick reference, copied from above (study 2):
Strand = CACGGTATCCTTCTCCTGACGTGCTAG; result = 0.167 z-score
Strand = TTCGATTCCAGTTTCGATTAGTGCTAG; result = 9.14 z-score
Strand = GGGGGAAATGGGAAACCCGGGGTGCTA; result = 1.07 z-score
Strand = TGGGACCAGCACAGACAGTCGTGCTAG; result = -1.09 z-score
